{"data": "Assay results from different studies", "note": "Parts stem from different laboratories: compare values within a part only. Substitutions count along the parent as printed."}
{"data": "Study 1", "target": "CCND3, cyclin fold, Cln2 fusion (human)", "method": "yeast growth competition, sequencing", "medium": "yeast", "notes": "weak parent motif", "reference": "not given", "direction": "higher = stronger binding", "starting sequence": "ORC1 docking peptide (human); PRARKRLELGNLG"}
{"Change": "PRARKRLRLGNLG [E8R]", "normalised enrichment score": 0.0971}
{"Change": "PRARKRLELGNLN [G13N]", "normalised enrichment score": 0.162}
{"Change": "PRARGRLELGNLG [K5G]", "normalised enrichment score": 0.109}
{"Change": "PRARKRKELGNLG [L7K]", "normalised enrichment score": 0.201}
{"Change": "WRARKRLELGNLG [P1W]", "normalised enrichment score": 0.19}
{"Change": "PRARKRLELGHLG [N11H]", "normalised enrichment score": 0.136}
{"Change": "PRARKRPELGNLG [L7P]", "normalised enrichment score": -0.00242}
{"Change": "PRATKRLELGNLG [R4T]", "normalised enrichment score": 0.159}
{"Change": "PRARKRLHLGNLG [E8H]", "normalised enrichment score": 0.0493}
{"Change": "PRARKRLELQNLG [G10Q]", "normalised enrichment score": 0.07}
{"Change": "YRARKRLELGNLG [P1Y]", "normalised enrichment score": 0.125}
{"Change": "PRARKRAELGNLG [L7A]", "normalised enrichment score": 0.0305}
{"Change": "PRARKRLEFGNLG [L9F]", "normalised enrichment score": 0.302}
{"Change": "PRARKRRELGNLG [L7R]", "normalised enrichment score": 0.205}
{"Change": "PRAVKRLELGNLG [R4V]", "normalised enrichment score": 0.132}
{"data": "Study 2", "target": "Phosphate system positive regulatory protein PHO4, full length, GST-tagged (PHO4, Saccharomyces cerevisiae, UniProt P07270, residues 1-312)", "method": "competition protein-binding microarray", "molecule type": "double-stranded DNA, one strand shown", "medium": "in vitro", "tested at": "2 µM", "notes": "whole 60-bp probe, lowest competitor level", "with": "Cbf1 competitor, 0.05 µM", "direction": "higher = stronger binding", "shared flanks, not repeated": "… GTCTTGATTCGCTTGACGCTGCTG", "Target sequence (chain)": "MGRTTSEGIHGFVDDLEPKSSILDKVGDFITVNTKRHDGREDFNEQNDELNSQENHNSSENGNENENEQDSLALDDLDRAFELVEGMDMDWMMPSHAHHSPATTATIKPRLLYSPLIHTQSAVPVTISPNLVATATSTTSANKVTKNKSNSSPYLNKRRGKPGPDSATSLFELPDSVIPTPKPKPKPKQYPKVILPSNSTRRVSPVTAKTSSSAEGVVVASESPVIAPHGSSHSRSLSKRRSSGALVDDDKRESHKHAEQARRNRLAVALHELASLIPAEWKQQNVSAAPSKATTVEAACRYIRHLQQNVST"}
{"Sequence": "CACCCGGAGTACCAAAACGTGACAAAGCAGTTTCCT", "fluorescence intensity": "12600 a.u."}
{"Sequence": "AAATTACTAAGTTGAATAGTGGGTGACGCCGTATGA", "fluorescence intensity": "4050 a.u."}
{"Sequence": "CTTTCCCGATCTTGAACAGTGGGTGTAGCACATTTG", "fluorescence intensity": "4810 a.u."}
{"Sequence": "GGTTCTTCGTCTTTGCACGTGGTCGAAGAGGAACCT", "fluorescence intensity": "17800 a.u."}
{"Sequence": "AAAGCGGTAATTTGTCACGCTACTTCACATATCTAT", "fluorescence intensity": "6050 a.u."}
{"Sequence": "AACTTAGCACCATCGCGCGTGCATCGCTGTATGTGT", "fluorescence intensity": "12700 a.u."}
{"Sequence": "TAAAAAATTTTCGGCCACGTAGTTGTATACTTTTGT", "fluorescence intensity": "6660 a.u."}
{"Sequence": "ACCTGAAATCCTTTTACAAACCATATTTAGATGTGC", "fluorescence intensity": "4130 a.u."}
{"Sequence": "GCGCGAGAACATTACGACGCGCCTTCCCGTTAAATT", "fluorescence intensity": "3740 a.u."}
{"Sequence": "TCGGCTTGCAGATCGCACGCACTCAGAGTACGAAAT", "fluorescence intensity": "7590 a.u."}
{"Sequence": "CGGGGTTAAGTTTGAGATGTGGGTGGCTTGCAGCAG", "fluorescence intensity": "4590 a.u."}
{"Sequence": "AAGGCCATAAAAAGAACCGTGACGGGGCCAAACAGA", "fluorescence intensity": "4680 a.u."}
{"Sequence": "AAATTACTAAGTTGCTCCGTGGGTGACGCCGTATGA", "fluorescence intensity": "5050 a.u."}
{"data": "Study 3", "target": "Fragile X messenger ribonucleoprotein 1, C-terminal low-complexity region (Fmr1, Mus musculus, UniProt P35922)", "method": "RNA Bind-n-Seq", "molecule type": "RNA", "medium": "in vitro", "tested at": "200 nM", "notes": "whole 134-nt RNA, ends assumed", "with": "150 mM LiCl", "reference": "input library", "direction": "higher = stronger binding", "library": "7-deaza-guanosine replaces G", "shared flanks, not repeated": "GGGAGUUCUACAGUCCGACGAUC … UGGAAUUCUCGGGUGUCAAGG"}
{"Sequence": "GUCCUGUGCUACACAUCGUAUGUACCGAAUCGGGAGGGAAAAAAAGGGAAAAAAAGGGAAAGUAUUAUGUUACGCCGUUCGGAUCUGCAC", "log2 enrichment": 0.667}
{"Sequence": "CCUGUGCUACACAUCGUAUGUACCGAAUCGGGUUUUUUUGGGUUUUUUUGGGUUUUUGGGAAAGUAUUAUGUUACGCCGUUCGGAUCUGC", "log2 enrichment": -1.03}
{"Sequence": "UGGUGUUAUUUUUGCACUACAAGGGCUCUGAAGACUGCCAGGCUUGAAAUGAAGAACGAUGUCACCUGCCUAUCACAGCCAGGUGACAAU", "log2 enrichment": -4.26}
{"Sequence": "CUCAAGUCCUGUGCUACACAUCGUAUGUACCGAAUCGGGAGGGGAGGGAGGGGAAAGUAUUAUGUUACGCCGUUCGGAUCUGCACUUCCA", "log2 enrichment": -0.428}
{"Sequence": "CACAGACAACACGCACCCACACUGACACAGAGGGAAGGGGUUGGGAUGGGGACAGGGUGCACAGCAGGGCGGGGUAGGACCCCAGCCCCU", "log2 enrichment": 0.522}
{"Sequence": "ACCAUGCAGGUGGGCAUCUUUGGGAAGUGGGGCAAGGGGGGGAUAGCGAGGGGGGUAACACUUUGGGAACAGGUGGUCCCAGGUCGUUUC", "log2 enrichment": 0.891}
{"Sequence": "UCCUGUGCUACACAUCGUAUGUACCGAAUCAAACCCCCCCAAAUUUUUAAACCCCCAAAAAAGUAUUAUGUUACGCCGUUCGGAUCUGCA", "log2 enrichment": 1.92}
{"Sequence": "ACCAUGCAGGUGGGCAUCUUUGGGAAGUGGGGCAAGGGGGGGAUAGGGAGGGGGGUAACAUUUUGGGAACAGGUGGUCCCAGGUCGUUUC", "log2 enrichment": 1.61}
{"data": "Study 4", "target": "Sal-like protein 4, full length isoform B (SALL4, Homo sapiens, UniProt Q9UJQ4-2, residues 1-616)", "method": "universal PBM", "molecule type": "double-stranded DNA, one strand shown", "medium": "in vitro", "tested at": "not given", "notes": "8-mer, flanks averaged, mean of replicates", "direction": "higher = stronger binding"}
{"Sequence": "CATGAAGA", "E-score": 0.109}
{"Sequence": "CCACCAGC", "E-score": -0.133}
{"Sequence": "CGTTACCA", "E-score": 0.109}
{"Sequence": "GGCGGTAC", "E-score": -0.166}
{"Sequence": "GAGCTAGA", "E-score": -0.0925}
{"Sequence": "CTGTCAGA", "E-score": -0.139}
{"Sequence": "AGCTGGAA", "E-score": -0.0852}
{"Sequence": "AGCATTAC", "E-score": 0.0755}
{"Sequence": "CATATGAG", "E-score": 0.178}
{"Sequence": "AGGGCGCA", "E-score": -0.325}
{"Sequence": "CCCTCTGA", "E-score": -0.0352}
{"Sequence": "TACTAGCA", "E-score": 0.0806}
{"Sequence": "ATTTGACC", "E-score": -0.00762}
{"Sequence": "CGGGTTTA", "E-score": -0.00106}
{"Sequence": "ACTATTCA", "E-score": 0.219}
{"Sequence": "TCATTCAA", "E-score": 0.27}
{"Sequence": "GCGGCGAA", "E-score": -0.26}
{"Sequence": "GTGACGTA", "E-score": 0.0583}
{"Sequence": "CTACCCCC", "E-score": -0.0745}
{"Sequence": "CGTCCGCC", "E-score": -0.307}
{"data": "Study 5", "target": "Histone acetyltransferase KAT6A, both winged helices, GST fusion (KAT6A, Homo sapiens, UniProt Q92794, residues 1-181)", "method": "protein binding microarray", "molecule type": "double-stranded DNA, one strand shown", "medium": "in vitro", "tested at": "not given", "notes": "8-mer, flanks averaged, mean of 2 arrays, mostly near background", "reference": "not given", "direction": "higher = stronger binding", "Construct (chain)": "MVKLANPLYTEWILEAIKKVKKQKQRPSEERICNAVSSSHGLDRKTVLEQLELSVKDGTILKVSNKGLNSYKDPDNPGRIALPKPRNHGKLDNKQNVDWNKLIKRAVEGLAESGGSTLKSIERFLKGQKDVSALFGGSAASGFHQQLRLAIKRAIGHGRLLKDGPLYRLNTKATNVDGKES"}
{"Sequence": "ACTACGAT", "E-score": -0.0905}
{"Sequence": "ACCTGCGA", "E-score": -0.0223}
{"Sequence": "ATAGGAAT", "E-score": -0.233}
{"Sequence": "AATCTCTC", "E-score": -0.118}
{"Sequence": "CTAAAAGC", "E-score": 0.119}
{"Sequence": "CCCCTAGG", "E-score": -0.265}
{"Sequence": "CCCCTACG", "E-score": -0.103}
{"Sequence": "CTGTTTCA", "E-score": -0.0549}
{"Sequence": "GGTTTTCA", "E-score": 0.0404}
{"Sequence": "GCGATACA", "E-score": 0.0257}
{"Sequence": "ATCCCTCA", "E-score": -0.042}
{"Sequence": "GCCCGAGC", "E-score": 0.129}
{"Sequence": "ATCATCTG", "E-score": -0.0501}
{"Sequence": "AGCACACG", "E-score": 0.0147}
{"Sequence": "GAAACTTC", "E-score": -0.0228}
{"Sequence": "CCAACGCG", "E-score": 0.258}
{"Sequence": "AGTCAATG", "E-score": -0.267}
{"Sequence": "CCCTGTCC", "E-score": -0.0806}
{"Sequence": "ATATATCC", "E-score": 0.0796}
{"Sequence": "TCCCCCGA", "E-score": 0.00601}
{"Sequence": "GGTCACTA", "E-score": -0.0299}
{"Sequence": "AGCAAGCT", "E-score": -0.246}
{"Sequence": "AGTTCAGG", "E-score": -0.14}
{"Sequence": "CTTCATAC", "E-score": -0.0536}
{"Sequence": "CCCACAGG", "E-score": -0.255}
{"note": "Repeated from above (study 2):"}
{"Sequence": "GCGCGAGAACATTACGACGCGCCTTCCCGTTAAATT", "fluorescence intensity": "3740 a.u."}
{"Sequence": "AAGGCCATAAAAAGAACCGTGACGGGGCCAAACAGA", "fluorescence intensity": "4680 a.u."}
{"Sequence": "TCGGCTTGCAGATCGCACGCACTCAGAGTACGAAAT", "fluorescence intensity": "7590 a.u."}
{"Sequence": "TAAAAAATTTTCGGCCACGTAGTTGTATACTTTTGT", "fluorescence intensity": "6660 a.u."}
{"Sequence": "CGGGGTTAAGTTTGAGATGTGGGTGGCTTGCAGCAG", "fluorescence intensity": "4590 a.u."}
{"Sequence": "AAAGCGGTAATTTGTCACGCTACTTCACATATCTAT", "fluorescence intensity": "6050 a.u."}
{"Sequence": "AACTTAGCACCATCGCGCGTGCATCGCTGTATGTGT", "fluorescence intensity": "12700 a.u."}
{"Sequence": "AAATTACTAAGTTGCTCCGTGGGTGACGCCGTATGA", "fluorescence intensity": "5050 a.u."}
{"Sequence": "AAATTACTAAGTTGAATAGTGGGTGACGCCGTATGA", "fluorescence intensity": "4050 a.u."}
{"Sequence": "GGTTCTTCGTCTTTGCACGTGGTCGAAGAGGAACCT", "fluorescence intensity": "17800 a.u."}
